Results collected from several papers.
Lines come from different studies, so protocols differ. “And” joins repeats or separate records; there may be more than shown. Numbers after ± are the reported error.
Route: intravenous

N=C(N)NCCC[C@@H]1NC(=O)[C@H](CCCCNC(=O)CCOCCOCCOCCOCCNC(=O)CC[C@H](NC(=O)CCOCCOCCOCCOCCNC(=O)CC[C@H](NC(=O)CN2CCN(CC(=O)O)CCN(CC(=O)O)CCN(CC(=O)O)CC2)C(=O)NCCOCCOCCOCCOCCC(=O)N[C@@H](CCC(=O)NCCOCCOCCOCCOCCC(=O)NCCCC[C@@H]2NC(=O)[C@@H](Cc3ccccc3)NC(=O)[C@H](CC(=O)O)NC(=O)CNC(=O)[C@H](CCCNC(=N)N)NC2=O)C(=O)NCCOCCOCCOCCOCCC(=O)NCCCC[C@@H]2NC(=O)[C@@H](Cc3ccccc3)NC(=O)[C@H](CC(=O)O)NC(=O)CNC(=O)[C@H](CCCNC(=N)N)NC2=O)C(=O)NCCOCCOCCOCCOCCC(=O)NCCCC[C@@H]2NC(=O)[C@@H](Cc3ccccc3)NC(=O)[C@H](CC(=O)O)NC(=O)CNC(=O)[C@H](CCCNC(=N)N)NC2=O)NC(=O)[C@@H](Cc2ccccc2)NC(=O)[C@H](CC(=O)O)NC(=O)CNC1=O [indium-111 labelled]  tissue uptake (female athymic nude mice, brain; 3 µCi, 72 h, U-87 MG glioma xenograft): 0.09 ± 0.06 %ID/g
CSCC[C@H](NC(=O)[C@H](CC(C)C)NC(=O)[C@H](Cc1c[nH]cn1)NC(=O)CNC(=O)[C@@H](NC(=O)[C@H](C)NC(=O)[C@H](Cc1c[nH]c2ccccc12)NC(=O)[C@H](CCC(N)=O)NC(=O)CCCCCNC(=O)CNC(=O)CNC(=O)CNC(=O)CSC(C)=O)C(C)C)C(N)=O [technetium-99m labelled]  tissue uptake (Swiss mouse, muscle; 18.5 MBq, 90 min): 0.1 ± 0.04 %ID/g
CCCNC(=O)[C@H](CC(C)C)NC(=O)[C@H](Cc1c[nH]cn1)NC(=O)CNC(=O)[C@@H](NC(=O)[C@H](C)NC(=O)[C@H](Cc1c[nH]c2ccccc12)NC(=O)[C@H](CCC(N)=O)NC(=O)[C@@H](Cc1ccccc1)NC(=O)CCCCCNC(=O)CN1CCN(CC(=O)O)CCN(CC(=O)O)CCN(CC(=O)O)CC1)C(C)C [indium-111 labelled]  excretion (biodistribution, ligand; CF-1 mouse; dose not given, 1 h, together with: 100 µg bombesin blocking): 91.25 ± 0.44 %ID
CCCC[C@H](NC(=O)CCCCCCCNC(=O)c1ccc(NN)nc1)C(=O)N[C@H]1CC(=O)NCCCC[C@@H](C(N)=O)NC(=O)[C@H](Cc2c[nH]c3ccccc23)NC(=O)[C@H](CCCNC(=N)N)NC(=O)[C@@H](Cc2ccccc2)NC(=O)[C@H](Cc2c[nH]cn2)NC1=O [technetium-99m labelled]  uptake (C57 mouse, B16/F1 melanoma, brain; 4 h): 0.02 ± 0.02 %ID/g
CCCC[C@H](NC(=O)CNC(=O)CNC(=O)c1ccc(NN)nc1)C(=O)N[C@H]1CC(=O)NCCCC[C@@H](C(N)=O)NC(=O)[C@H](Cc2c[nH]c3ccccc23)NC(=O)[C@H](CCCNC(=N)N)NC(=O)[C@@H](Cc2ccccc2)NC(=O)[C@H](Cc2c[nH]cn2)NC1=O [technetium-99m labelled]  uptake (C57 mouse, B16/F1 melanoma, intestines; 24 h): 0.24 ± 0.17 %ID
N=C(N)NCCC[C@@H]1NC(=O)[C@H](CCCCNC(=O)CCOCCOCCOCCOCCNC(=O)CC[C@H](NC(=O)[C@H](CCCCNC(=O)c2ccc(NN)nc2)NC(=O)c2ccc(NN)nc2)C(=O)NCCOCCOCCOCCOCCC(=O)NCCCC[C@@H]2NC(=O)[C@@H](Cc3ccccc3)NC(=O)[C@H](CC(=O)O)NC(=O)CNC(=O)[C@H](CCCNC(=N)N)NC2=O)NC(=O)[C@@H](Cc2ccccc2)NC(=O)[C@H](CC(=O)O)NC(=O)CNC1=O [technetium-99m labelled]  tissue uptake (female athymic nude mice, eyes; 0.1 MBq, 1 h, U-87 MG glioma xenograft): 1.27 ± 0.18 %ID/g
N=C(N)NCCC[C@@H]1NC(=O)[C@H](CCCCNC(=O)CCOCCOCCOCCOCCNC(=O)CN2CCN(CC(=O)O)CCN(CC(=O)O)CCN(CC(=O)O)CC2)NC(=O)[C@@H](Cc2ccccc2)NC(=O)[C@H](CC(=O)O)NC(=O)CNC1=O [indium-111 labelled]  tissue uptake (female athymic nude mice, intestine; 3 µCi, 0.5 h, U-87 MG glioma xenograft): 2.72 ± 0.5 %ID/g
CSCC[C@H](NC(=O)[C@H](CC(C)C)NC(=O)[C@H](Cc1c[nH]cn1)NC(=O)CNC(=O)[C@@H](NC(=O)[C@H](C)NC(=O)[C@H](Cc1c[nH]c2ccccc12)NC(=O)[C@H](CCC(N)=O)NC(=O)CNC(=O)[C@H](CO)NC(=O)CNC(=O)CCCCCCCNC(=O)CCC(=O)Nc1ccc(CNC23CNCCNCC(N)(CNCCNC2)CNCCNC3)cc1)C(C)C)C(N)=O [copper-64 labelled]  tissue uptake (female SCID mice, PC-3 xenograft, spleen; 0.6 MBq, 24 h): 0.931 ± 0.091 %ID/g
N=C(N)NCCC[C@@H]1NC(=O)[C@H](CCCCNC(=O)CNC(=O)CNC(=O)CNC(=O)CC[C@H](NC(=O)CCOCCOCCOCCOCCNC(=O)CC[C@H](NC(=O)CN2CCN(CC(=O)O)CCN(CC(=O)O)CCN(CC(=O)O)CC2)C(=O)NCCOCCOCCOCCOCCC(=O)N[C@@H](CCC(=O)NCC(=O)NCC(=O)NCC(=O)NCCCC[C@@H]2NC(=O)[C@@H](Cc3ccccc3)NC(=O)[C@H](CC(=O)O)NC(=O)CNC(=O)[C@H](CCCNC(=N)N)NC2=O)C(=O)NCC(=O)NCC(=O)NCC(=O)NCCCC[C@@H]2NC(=O)[C@@H](Cc3ccccc3)NC(=O)[C@H](CC(=O)O)NC(=O)CNC(=O)[C@H](CCCNC(=N)N)NC2=O)C(=O)NCC(=O)NCC(=O)NCC(=O)NCCCC[C@@H]2NC(=O)[C@@H](Cc3ccccc3)NC(=O)[C@H](CC(=O)O)NC(=O)CNC(=O)[C@H](CCCNC(=N)N)NC2=O)NC(=O)[C@@H](Cc2ccccc2)NC(=O)[C@H](CC(=O)O)NC(=O)CNC1=O [indium-111 labelled]  tissue uptake (female athymic nude mice, heart; 3 µCi, 24 h, U-87 MG glioma xenograft): 0.26 %ID/g
CCCC[C@H](NC(=O)[C@H](Cc1cccs1)NC(=O)[C@H](Cc1c[nH]cn1)NC(=O)CCNC(=O)[C@@H](NC(=O)[C@H](C)NC(=O)[C@H](Cc1c[nH]c2ccccc12)NC(=O)[C@H](CCC(N)=O)NC(=O)[C@H](Cc1cccs1)NC(=O)CN1CCC(NC(=O)CN(CCN(CCN(CC(=O)O)CC(=O)O)CC(=O)O)CC(=O)O)CC1)C(C)C)C(N)=O [indium-111 labelled]  intact peptide (radio-HPLC; Swiss nu/nu mice, blood; 1 nmol, 5 min): 9.5% and 10.2%

Excerpt of the above:
N=C(N)NCCC[C@@H]1NC(=O)[C@H](CCCCNC(=O)CNC(=O)CNC(=O)CNC(=O)CC[C@H](NC(=O)CCOCCOCCOCCOCCNC(=O)CC[C@H](NC(=O)CN2CCN(CC(=O)O)CCN(CC(=O)O)CCN(CC(=O)O)CC2)C(=O)NCCOCCOCCOCCOCCC(=O)N[C@@H](CCC(=O)NCC(=O)NCC(=O)NCC(=O)NCCCC[C@@H]2NC(=O)[C@@H](Cc3ccccc3)NC(=O)[C@H](CC(=O)O)NC(=O)CNC(=O)[C@H](CCCNC(=N)N)NC2=O)C(=O)NCC(=O)NCC(=O)NCC(=O)NCCCC[C@@H]2NC(=O)[C@@H](Cc3ccccc3)NC(=O)[C@H](CC(=O)O)NC(=O)CNC(=O)[C@H](CCCNC(=N)N)NC2=O)C(=O)NCC(=O)NCC(=O)NCC(=O)NCCCC[C@@H]2NC(=O)[C@@H](Cc3ccccc3)NC(=O)[C@H](CC(=O)O)NC(=O)CNC(=O)[C@H](CCCNC(=N)N)NC2=O)NC(=O)[C@@H](Cc2ccccc2)NC(=O)[C@H](CC(=O)O)NC(=O)CNC1=O [indium-111 labelled]  tissue uptake (female athymic nude mice, heart; 3 µCi, 24 h, U-87 MG glioma xenograft): 0.26 %ID/g
